Assay results of several laboratories.
Lines come from different studies, so protocols differ.

Structure (SMILES) | test | test system | conditions | endpoint | result
COc1ccc([C@@H](O)c2cc(-c3ncnc4cc(N5CCOCC5)ccc34)c(F)cc2Cl)nn1 |  | locally advanced rectal cancer patients | 50 mg, drug-related adverse events, together with: capecitabine and radiotherapy | patients with anemia | 0%
COc1cc(Nc2ncc3c(n2)-c2ccc(Cl)cc2C(c2c(F)cccc2OC)=NC3)ccc1C(=O)O | refers to: Fever, all grades | cancer patients, phase 1/2 | oral, dose not given, together with: pembrolizumab | patients with adverse event | 13%
FC(F)(F)c1ccc(CNc2ccc(Cc3c[nH]c4ncc(Cl)cc34)cn2)cn1 | refers to: hair colour changes | non-TGCT solid tumour patients | oral, 1000 mg/day, grade 3 or higher | patients with treatment-related adverse event | 0%
Cc1cc(NC2CCN(C(=O)OC3CCN(C(=O)/C=C/CN(C)C)C3)CC2)n2ncc(C(C)C)c2n1 (centres unmarked) | Phase I dose escalation CTCAE v4.0, refers to: blood creatinine increased | patients with advanced solid tumours | dose not given, TIW dosing grade 3 or higher | patients with adverse event | 0%
O=C(Nc1nc2cccc(-c3ccc(CN4CCS(=O)(=O)CC4)cc3)n2n1)C1CC1 | refers to: abdominal discomfort | rheumatoid arthritis patients | oral, 300 mg once daily, 4 weeks, any relatedness | patients with adverse event | 0%
C[C@@H](Nc1cc(F)cc(F)c1)c1cc(C(=O)N(C)C)cc2c(=O)cc(N3CCOCC3)oc12 | CTCAE v4, refers to: pulmonary embolism | patients with advanced solid tumours | oral, dose not given, phase I dose expansion | patients discontinuing for AE | 0%
CNC(=O)c1ccc(-c2cnc3ncc(Cc4ccc5ncccc5c4)n3n2)cc1F | refers to: Asthenia, all grades | cancer patients | oral, dose not given, dose escalation, any causality | patients with adverse event | 18%
Cc1cc(-c2nnc(N)nc2-c2ccc(F)cc2)cc(Cl)n1 | refers to: Rash | IO-naive colorectal cancer patients | oral, dose not given, treatment-related, grade 1 | patients with immune-mediated AE | 4%

Some of these lines once more:
Structure (SMILES) | test | test system | conditions | endpoint | result
Cc1cc(-c2nnc(N)nc2-c2ccc(F)cc2)cc(Cl)n1 | refers to: Rash | IO-naive colorectal cancer patients | oral, dose not given, treatment-related, grade 1 | patients with immune-mediated AE | 4%
